# Experimental data from different studies.
# Each numbered part is a random draw from the data of one study; scales do not carry over between parts. Several values in a cell are separate wells, animals, samples, runs or records.
# UniProt P54760, sequence (whole entry, looked up): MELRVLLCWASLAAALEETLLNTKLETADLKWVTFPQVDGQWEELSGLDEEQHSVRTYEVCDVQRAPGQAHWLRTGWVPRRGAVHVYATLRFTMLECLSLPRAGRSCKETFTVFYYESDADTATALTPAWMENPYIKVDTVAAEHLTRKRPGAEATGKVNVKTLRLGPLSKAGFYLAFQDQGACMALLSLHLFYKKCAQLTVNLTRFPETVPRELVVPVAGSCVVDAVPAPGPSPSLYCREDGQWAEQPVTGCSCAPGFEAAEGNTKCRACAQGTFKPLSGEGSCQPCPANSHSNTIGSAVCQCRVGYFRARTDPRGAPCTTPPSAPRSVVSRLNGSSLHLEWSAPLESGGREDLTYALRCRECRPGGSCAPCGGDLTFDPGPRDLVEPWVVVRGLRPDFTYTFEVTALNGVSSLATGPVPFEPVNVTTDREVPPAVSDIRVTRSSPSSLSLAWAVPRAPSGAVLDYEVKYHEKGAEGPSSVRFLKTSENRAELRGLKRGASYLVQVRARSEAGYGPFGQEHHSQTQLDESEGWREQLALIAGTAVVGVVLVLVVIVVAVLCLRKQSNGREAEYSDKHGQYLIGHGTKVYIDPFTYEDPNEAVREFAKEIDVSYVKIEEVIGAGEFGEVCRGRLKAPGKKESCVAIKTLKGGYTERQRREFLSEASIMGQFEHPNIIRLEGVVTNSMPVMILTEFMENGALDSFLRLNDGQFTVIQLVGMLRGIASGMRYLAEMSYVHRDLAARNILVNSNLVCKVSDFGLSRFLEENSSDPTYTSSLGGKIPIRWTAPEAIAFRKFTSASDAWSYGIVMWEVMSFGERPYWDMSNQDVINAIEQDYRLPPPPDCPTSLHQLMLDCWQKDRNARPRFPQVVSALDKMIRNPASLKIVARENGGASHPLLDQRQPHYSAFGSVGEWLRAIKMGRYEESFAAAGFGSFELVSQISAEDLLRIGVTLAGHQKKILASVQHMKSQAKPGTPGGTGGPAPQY
# UniProt P06239, sequence (whole entry, looked up): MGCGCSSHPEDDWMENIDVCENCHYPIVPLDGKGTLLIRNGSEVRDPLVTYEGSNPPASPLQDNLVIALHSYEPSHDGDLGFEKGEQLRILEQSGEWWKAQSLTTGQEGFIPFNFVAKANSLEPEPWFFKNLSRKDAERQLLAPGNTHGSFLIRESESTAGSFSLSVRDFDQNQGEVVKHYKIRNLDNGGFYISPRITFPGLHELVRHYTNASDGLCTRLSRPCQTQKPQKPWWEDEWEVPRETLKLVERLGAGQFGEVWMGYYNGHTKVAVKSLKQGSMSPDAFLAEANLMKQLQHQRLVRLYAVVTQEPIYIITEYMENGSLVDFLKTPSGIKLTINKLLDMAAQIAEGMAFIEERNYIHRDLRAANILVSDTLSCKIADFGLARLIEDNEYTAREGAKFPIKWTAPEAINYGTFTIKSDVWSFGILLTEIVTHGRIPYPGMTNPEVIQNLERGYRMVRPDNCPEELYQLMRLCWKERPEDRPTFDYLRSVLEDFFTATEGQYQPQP
# UniProt O75914, sequence (whole entry, looked up): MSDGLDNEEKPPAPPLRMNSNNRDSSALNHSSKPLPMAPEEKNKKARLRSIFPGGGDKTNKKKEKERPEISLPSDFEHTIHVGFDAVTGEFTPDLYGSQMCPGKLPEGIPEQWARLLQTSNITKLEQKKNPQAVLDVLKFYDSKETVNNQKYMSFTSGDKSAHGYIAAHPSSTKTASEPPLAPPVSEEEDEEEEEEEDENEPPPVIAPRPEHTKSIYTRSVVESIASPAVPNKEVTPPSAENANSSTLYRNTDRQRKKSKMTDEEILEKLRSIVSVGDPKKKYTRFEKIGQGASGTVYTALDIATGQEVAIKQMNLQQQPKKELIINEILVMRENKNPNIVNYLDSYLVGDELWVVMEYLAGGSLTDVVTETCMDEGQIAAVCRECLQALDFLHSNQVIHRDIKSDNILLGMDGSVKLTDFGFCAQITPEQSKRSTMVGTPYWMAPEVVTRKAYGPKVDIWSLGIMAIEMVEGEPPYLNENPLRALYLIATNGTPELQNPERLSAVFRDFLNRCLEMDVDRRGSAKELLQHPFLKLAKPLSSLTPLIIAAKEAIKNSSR
# UniProt Q9Y2H9, sequence (whole entry, looked up): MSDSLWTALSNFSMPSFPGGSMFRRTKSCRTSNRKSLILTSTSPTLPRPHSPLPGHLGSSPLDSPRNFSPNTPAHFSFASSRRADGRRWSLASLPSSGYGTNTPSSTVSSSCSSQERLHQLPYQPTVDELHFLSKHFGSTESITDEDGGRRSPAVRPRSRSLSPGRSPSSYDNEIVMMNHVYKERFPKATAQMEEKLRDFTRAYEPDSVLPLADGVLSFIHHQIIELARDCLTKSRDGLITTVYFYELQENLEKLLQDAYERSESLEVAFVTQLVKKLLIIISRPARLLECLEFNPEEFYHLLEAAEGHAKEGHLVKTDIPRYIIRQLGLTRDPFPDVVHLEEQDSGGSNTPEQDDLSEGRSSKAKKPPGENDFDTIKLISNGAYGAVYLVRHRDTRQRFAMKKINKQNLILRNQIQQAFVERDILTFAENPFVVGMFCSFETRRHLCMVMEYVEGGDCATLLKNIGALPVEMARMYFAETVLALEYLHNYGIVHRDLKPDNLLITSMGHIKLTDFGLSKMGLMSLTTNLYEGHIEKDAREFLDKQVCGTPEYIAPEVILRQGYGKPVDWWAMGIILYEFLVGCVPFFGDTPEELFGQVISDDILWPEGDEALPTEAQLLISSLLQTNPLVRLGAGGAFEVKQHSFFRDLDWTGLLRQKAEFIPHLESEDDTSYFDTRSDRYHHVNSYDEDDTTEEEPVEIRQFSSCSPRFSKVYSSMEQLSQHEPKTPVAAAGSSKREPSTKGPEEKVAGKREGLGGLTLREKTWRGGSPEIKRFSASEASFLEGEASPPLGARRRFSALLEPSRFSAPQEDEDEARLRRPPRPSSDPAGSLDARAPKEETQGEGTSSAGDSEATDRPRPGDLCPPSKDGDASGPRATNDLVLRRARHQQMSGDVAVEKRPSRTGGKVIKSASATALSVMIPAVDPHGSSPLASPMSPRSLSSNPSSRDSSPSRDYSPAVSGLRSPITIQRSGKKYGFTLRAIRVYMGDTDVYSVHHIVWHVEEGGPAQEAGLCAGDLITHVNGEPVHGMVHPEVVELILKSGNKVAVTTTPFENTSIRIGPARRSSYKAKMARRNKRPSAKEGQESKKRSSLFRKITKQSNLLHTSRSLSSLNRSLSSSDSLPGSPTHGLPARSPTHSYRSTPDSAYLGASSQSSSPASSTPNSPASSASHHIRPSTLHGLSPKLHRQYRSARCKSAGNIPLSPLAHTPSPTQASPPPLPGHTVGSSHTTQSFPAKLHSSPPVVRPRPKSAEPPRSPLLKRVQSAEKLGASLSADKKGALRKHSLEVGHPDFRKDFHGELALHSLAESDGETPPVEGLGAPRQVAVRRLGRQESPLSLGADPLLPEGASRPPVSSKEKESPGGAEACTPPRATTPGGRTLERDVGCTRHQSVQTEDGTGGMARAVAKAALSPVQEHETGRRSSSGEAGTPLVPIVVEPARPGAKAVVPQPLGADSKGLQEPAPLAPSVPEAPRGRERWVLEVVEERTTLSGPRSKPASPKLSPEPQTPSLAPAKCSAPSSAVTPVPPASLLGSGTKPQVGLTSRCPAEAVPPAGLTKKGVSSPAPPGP
# UniProt P57058, sequence (whole entry, looked up): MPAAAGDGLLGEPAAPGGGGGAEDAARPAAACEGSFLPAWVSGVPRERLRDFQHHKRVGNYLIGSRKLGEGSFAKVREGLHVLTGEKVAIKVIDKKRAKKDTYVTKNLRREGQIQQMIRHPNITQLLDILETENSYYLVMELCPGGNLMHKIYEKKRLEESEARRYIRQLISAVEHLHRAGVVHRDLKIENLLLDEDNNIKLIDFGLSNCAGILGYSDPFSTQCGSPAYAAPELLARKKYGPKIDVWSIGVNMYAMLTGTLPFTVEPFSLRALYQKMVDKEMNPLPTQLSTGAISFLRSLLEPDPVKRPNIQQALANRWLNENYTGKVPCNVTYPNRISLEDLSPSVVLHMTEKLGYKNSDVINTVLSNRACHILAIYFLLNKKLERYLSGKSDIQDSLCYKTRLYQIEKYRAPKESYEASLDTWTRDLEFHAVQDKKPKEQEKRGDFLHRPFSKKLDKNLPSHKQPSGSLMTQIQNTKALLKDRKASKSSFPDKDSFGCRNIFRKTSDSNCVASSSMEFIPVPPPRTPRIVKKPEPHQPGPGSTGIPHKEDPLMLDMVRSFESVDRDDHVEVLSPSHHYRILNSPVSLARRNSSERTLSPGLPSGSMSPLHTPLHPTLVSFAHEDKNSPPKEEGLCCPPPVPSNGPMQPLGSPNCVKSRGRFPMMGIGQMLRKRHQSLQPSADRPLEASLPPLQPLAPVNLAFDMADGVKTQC

# Set 1
# Target: TAR DNA-binding protein 43, full length, His tag (TARDBP, Homo sapiens, UniProt Q13148, residues 1-414)
# Method: RNA Bind-n-Seq
# Form: RNA
# Matrix: in vitro
# Tested at: 20 nM
# Setting: 6-mer, flanks averaged, single round
# With: 150 mM LiCl
# Baseline: input library
# Reading: higher = stronger binding
Oligonucleotide,6-mer enrichment (R)
UGUCGU,1.06
CUUUCG,0.885
CCCCAG,1.11
UAGGCG,0.991
ACCAUU,0.959
CGGAGC,0.959
UCGUAU,0.924
GUCGAC,0.927

# Set 2
# Compound: O=C1CCC(N2Cc3cc(C4CCN(Cc5ccccc5)CC4)ccc3C2=O)C(=O)N1 (centres unmarked)
# Matrix: plasma
system,setting,Tmax [min]
"Sprague Dawley rat, male","oral, 3.0 mg/kg",120
"ICR mouse, male","intravenous, 1.0 mg/kg",4.8
"Sprague Dawley rat, male","intravenous, 1.0 mg/kg",15

# Set 3
# Structure (SMILES): O=S(=O)(NC1CCC(c2cc(F)ccc2F)(S(=O)(=O)c2ccc(Cl)cc2)CC1)C(F)(F)F (centres unmarked)
# Effect on: cell-free assay
# Method: competition with immobilised ligand
# Tested at: 1 µM
target,remaining binding [%]
"Phosphatidylinositol 4,5-bisphosphate 3-kinase catalytic subunit gamma isoform (PIK3CG, Homo sapiens, UniProt P48736)",100
"Microtubule-associated serine/threonine-protein kinase 1 (MAST1, Homo sapiens, UniProt Q9Y2H9)",100
"Ephrin type-B receptor 4 (EPHB4, Homo sapiens, UniProt P54760)",100
"Tyrosine-protein kinase Lck (LCK, Homo sapiens, UniProt P06239)",100
"Hormonally up-regulated neu tumor-associated kinase (HUNK, Homo sapiens, UniProt P57058)",100
"Serine/threonine-protein kinase PAK 3 (PAK3, Homo sapiens, UniProt O75914)",100

# Set 4
# Target: Tyrosine-protein kinase ITK/TSK (ITK, Homo sapiens, UniProt Q08881)
# UniProt Q08881, sequence (whole entry, looked up): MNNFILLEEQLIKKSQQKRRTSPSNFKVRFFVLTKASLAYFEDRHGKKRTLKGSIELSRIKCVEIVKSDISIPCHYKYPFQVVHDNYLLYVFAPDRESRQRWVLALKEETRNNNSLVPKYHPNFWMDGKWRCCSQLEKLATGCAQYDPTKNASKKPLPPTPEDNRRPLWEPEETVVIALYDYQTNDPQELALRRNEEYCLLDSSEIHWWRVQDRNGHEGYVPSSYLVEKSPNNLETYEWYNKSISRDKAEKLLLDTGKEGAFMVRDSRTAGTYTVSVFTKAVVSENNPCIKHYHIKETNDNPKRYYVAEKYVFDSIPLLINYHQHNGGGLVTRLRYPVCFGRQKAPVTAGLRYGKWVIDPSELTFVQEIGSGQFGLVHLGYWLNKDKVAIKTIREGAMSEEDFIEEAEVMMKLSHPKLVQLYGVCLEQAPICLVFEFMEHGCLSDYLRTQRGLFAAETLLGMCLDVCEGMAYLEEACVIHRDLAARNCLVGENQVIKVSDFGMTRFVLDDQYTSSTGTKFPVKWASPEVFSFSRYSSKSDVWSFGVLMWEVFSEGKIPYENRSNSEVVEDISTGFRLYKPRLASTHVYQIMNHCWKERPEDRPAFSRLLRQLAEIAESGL
# Effect on: enzyme activity
# Action: inhibitor
# Tested at: 0.5 µM
# Baseline: control
SMILES,remaining activity [%]
O=C(Nc1cccc(Nc2nccc(Nc3cccc(C(F)(F)F)c3)n2)c1)C1CC1,101
N#Cc1c(NC(=O)c2cccc3ccccc23)sc2c1CCCC2,101
CCN(CC)CCNC(=O)c1c(C)[nH]c(/C=C2\C(=O)Nc3ccc(F)cc32)c1C,64.3
c1ccc(-c2cnc(Nc3ccc(OCCN4CCCC4)cc3)s2)cc1,85.2
COc1cc2ncnc(Nc3cccc(Cl)c3)c2cc1OC,93.8
Cc1cc2ncc(-c3ccccc3)nc2cc1C,100
CCN(CC)C(=O)c1ccc(Nc2nc(OCC3CCCCC3)c3[nH]cnc3n2)cc1,57.3
Cc1cn(-c2cc(NC(=O)c3ccc(C)c(Nc4nccc(-c5cccnc5)n4)c3)cc(C(F)(F)F)c2)cn1,102
C[C@@H]1CCN(C(=O)CC#N)C[C@@H]1N(C)c1ncnc2[nH]ccc12,99.1
O=C(NC(NC(=S)Nc1ccc(F)c([N+](=O)[O-])c1)C(Cl)(Cl)Cl)C(c1ccccc1)c1ccccc1 (centres unmarked),94.9
O=C1C(Cl)=C(N2C(=O)CCC2=O)C(=O)c2ccccc21,87.5

# Other studies, line by line
SMILES,system,setting,scale,endpoint,result
CC(=O)N[C@@H](Cc1c[nH]c2ccccc12)C(=O)N[C@@H](CCC(=O)C=[N+]=[N-])C(=O)OC(C)C,"C57BL/6 CES1-/- mice, MC-38 tumour","dose not given, day 68 after inoculation, with: anti-PD-1",baseline: initial,body weight,103% and 109% and 104%

# Excerpt of the above (set 1):
Oligonucleotide,6-mer enrichment (R)
CCCCAG,1.11
UAGGCG,0.991
ACCAUU,0.959
CGGAGC,0.959
